Assay results gathered from unrelated publications.
Parts stem from different laboratories: compare values within a part only. Positions count from the first letter of the parent shown.
Chain of UniProt Q13237 (whole entry, looked up): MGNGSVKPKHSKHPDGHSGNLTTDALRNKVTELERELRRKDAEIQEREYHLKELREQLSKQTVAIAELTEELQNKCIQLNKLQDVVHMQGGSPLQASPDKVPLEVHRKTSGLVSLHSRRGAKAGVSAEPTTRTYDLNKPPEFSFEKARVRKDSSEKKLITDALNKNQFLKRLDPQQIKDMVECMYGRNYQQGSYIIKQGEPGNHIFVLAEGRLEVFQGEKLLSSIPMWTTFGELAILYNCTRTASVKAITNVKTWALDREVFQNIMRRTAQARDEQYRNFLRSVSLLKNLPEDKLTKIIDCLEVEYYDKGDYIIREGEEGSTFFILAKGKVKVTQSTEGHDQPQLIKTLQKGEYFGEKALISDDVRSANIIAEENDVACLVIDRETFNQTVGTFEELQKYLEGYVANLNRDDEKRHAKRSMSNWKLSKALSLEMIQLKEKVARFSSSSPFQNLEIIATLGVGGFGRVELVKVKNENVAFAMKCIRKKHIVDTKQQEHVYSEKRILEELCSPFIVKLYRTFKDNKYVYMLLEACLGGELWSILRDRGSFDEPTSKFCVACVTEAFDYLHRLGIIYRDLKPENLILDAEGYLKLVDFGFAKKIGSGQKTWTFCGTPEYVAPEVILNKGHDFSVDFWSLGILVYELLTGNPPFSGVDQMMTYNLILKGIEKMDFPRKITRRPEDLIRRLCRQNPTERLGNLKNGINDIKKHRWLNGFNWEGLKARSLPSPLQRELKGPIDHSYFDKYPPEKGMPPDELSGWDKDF
Chain of UniProt P32298 (whole entry, looked up): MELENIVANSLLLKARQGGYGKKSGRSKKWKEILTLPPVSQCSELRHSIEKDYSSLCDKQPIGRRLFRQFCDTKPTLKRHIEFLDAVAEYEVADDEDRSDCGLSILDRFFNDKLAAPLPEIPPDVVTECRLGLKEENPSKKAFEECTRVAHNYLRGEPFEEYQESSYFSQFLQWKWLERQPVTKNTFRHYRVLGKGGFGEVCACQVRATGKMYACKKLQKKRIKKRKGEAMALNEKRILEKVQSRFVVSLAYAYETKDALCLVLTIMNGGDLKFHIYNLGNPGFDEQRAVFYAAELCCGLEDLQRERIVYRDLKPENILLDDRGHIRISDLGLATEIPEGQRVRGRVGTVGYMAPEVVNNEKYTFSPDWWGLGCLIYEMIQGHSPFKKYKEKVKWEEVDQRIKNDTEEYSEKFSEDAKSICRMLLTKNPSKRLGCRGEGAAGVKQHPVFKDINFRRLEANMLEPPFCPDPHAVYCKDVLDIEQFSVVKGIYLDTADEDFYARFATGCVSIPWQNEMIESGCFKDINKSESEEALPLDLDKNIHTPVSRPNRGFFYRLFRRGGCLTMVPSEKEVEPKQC
Chain of UniProt P35968 (whole entry, looked up): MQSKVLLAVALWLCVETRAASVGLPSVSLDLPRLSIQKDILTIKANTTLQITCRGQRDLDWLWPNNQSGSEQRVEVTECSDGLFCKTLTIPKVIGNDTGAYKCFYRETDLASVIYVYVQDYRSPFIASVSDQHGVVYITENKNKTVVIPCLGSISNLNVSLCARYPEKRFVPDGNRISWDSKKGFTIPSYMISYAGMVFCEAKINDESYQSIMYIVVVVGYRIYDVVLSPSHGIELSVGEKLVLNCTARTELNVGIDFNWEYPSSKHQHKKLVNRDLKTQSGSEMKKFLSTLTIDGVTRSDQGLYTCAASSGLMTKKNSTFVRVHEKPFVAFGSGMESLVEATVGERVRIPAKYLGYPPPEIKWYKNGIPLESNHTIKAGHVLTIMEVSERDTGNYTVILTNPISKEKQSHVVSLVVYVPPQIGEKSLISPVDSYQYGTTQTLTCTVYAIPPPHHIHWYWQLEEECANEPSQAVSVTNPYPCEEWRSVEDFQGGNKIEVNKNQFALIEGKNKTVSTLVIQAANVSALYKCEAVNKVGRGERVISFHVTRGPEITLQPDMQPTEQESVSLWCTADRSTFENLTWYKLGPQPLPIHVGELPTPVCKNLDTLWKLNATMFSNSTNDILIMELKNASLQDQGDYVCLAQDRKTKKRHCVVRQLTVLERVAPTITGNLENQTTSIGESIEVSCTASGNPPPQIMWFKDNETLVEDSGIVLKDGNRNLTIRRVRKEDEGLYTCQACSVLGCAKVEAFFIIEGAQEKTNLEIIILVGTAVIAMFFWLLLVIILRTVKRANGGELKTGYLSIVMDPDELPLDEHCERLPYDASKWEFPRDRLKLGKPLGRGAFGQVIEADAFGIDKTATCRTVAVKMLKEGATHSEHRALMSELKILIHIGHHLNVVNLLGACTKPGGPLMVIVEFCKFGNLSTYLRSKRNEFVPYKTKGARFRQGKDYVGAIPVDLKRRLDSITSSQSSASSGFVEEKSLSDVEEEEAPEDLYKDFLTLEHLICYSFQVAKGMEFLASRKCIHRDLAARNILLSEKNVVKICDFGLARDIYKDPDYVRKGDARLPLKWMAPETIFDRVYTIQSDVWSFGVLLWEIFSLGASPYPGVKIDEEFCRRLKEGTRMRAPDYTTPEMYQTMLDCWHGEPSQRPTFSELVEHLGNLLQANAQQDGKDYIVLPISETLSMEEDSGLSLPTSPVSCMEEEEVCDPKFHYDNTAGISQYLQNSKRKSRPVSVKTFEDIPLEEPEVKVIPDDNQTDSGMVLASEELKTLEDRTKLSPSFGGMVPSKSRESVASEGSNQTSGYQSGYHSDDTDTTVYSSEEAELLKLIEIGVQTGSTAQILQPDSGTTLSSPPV
Chain of UniProt Q16539 (whole entry, looked up): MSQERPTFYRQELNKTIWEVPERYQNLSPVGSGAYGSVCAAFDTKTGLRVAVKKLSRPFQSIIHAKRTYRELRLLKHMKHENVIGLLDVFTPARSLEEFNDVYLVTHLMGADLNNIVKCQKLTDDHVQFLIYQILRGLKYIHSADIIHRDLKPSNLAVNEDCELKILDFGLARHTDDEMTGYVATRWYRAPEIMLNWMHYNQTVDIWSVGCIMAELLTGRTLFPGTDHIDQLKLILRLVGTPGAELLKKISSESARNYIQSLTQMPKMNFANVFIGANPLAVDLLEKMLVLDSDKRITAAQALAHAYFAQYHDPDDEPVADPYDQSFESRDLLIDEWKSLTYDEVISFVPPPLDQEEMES
Chain of UniProt P41595 (whole entry, looked up): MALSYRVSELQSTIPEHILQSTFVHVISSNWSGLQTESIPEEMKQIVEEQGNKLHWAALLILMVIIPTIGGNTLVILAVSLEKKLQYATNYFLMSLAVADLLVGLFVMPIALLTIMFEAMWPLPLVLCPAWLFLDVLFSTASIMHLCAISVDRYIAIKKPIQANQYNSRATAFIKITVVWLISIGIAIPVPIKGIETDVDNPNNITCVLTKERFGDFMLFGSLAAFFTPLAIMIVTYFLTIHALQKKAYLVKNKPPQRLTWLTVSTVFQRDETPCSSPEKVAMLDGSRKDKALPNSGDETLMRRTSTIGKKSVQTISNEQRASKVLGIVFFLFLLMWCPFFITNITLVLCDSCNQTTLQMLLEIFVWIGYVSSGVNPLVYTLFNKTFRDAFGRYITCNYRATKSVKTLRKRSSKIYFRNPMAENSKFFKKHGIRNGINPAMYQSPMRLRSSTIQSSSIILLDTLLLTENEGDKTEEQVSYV
Chain of UniProt Q9Y5N1 (whole entry, looked up): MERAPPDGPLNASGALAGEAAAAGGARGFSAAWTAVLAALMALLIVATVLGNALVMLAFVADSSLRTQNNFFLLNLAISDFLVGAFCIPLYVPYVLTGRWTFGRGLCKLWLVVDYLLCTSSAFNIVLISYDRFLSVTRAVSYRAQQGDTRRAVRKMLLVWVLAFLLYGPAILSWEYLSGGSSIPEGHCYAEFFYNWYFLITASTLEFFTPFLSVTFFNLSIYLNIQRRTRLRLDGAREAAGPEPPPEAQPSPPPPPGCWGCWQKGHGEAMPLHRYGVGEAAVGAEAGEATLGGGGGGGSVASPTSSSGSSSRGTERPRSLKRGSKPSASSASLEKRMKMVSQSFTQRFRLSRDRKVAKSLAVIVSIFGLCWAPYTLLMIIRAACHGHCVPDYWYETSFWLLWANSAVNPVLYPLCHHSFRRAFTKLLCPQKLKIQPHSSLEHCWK
Chain of UniProt Q8N568 (whole entry, looked up): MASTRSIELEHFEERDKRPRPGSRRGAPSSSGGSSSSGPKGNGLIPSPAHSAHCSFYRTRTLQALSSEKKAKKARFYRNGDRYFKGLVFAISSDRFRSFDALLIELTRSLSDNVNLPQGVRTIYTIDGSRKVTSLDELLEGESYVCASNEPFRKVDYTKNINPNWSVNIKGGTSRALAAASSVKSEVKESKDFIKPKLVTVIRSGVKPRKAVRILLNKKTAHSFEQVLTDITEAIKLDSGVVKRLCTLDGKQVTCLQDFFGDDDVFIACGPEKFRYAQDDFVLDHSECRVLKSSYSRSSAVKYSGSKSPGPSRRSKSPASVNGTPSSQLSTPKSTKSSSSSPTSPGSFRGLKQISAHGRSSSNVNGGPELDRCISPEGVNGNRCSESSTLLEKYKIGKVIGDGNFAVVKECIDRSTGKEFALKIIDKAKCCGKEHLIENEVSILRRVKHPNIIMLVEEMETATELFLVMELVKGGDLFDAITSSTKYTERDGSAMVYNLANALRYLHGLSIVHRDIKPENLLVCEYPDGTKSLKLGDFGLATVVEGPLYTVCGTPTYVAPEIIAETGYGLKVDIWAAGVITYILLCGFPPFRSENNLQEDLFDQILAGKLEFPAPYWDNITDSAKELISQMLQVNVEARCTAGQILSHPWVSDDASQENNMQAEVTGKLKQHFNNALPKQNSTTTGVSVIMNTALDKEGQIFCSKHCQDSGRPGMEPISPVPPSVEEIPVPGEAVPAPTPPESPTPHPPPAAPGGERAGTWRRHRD

Block 1 — target: OGT, full length, His-tagged (human); method: phage display, sequencing; sample: in vitro; concentration: 1 µg OGT; relative to: input library; reading: higher = stronger binding; parent: peptide; VAYPNSYMPKYQIST
Notes: single substitutions, 15-mer displayed peptide, unchanged parent 6.14
Substitution | fold enrichment
VVYPNSYMPKYQIST [A2V] | 6.66 fold
VAYPNSYMPKYQISH [T15H] | 2.44 fold
VASPNSYMPKYQIST [Y3S] | 5.84 fold
VAYPNSYMPKYDIST [Q12D] | 0.687 fold
VAYPNSYMPKYQIVT [S14V] | 12.3 fold
VAYPNSYMPMYQIST [K10M] | 6.16 fold
VAYPNSYMPKRQIST [Y11R] | 0.699 fold
VAYPNSYMPKYQMST [I13M] | 0.615 fold

Block 2 — effect on: enzyme activity; action: inhibitor; concentration: 0.5 µM; relative to: control
Compound: COc1cc2ncnc(Nc3ccc(OCc4ccccc4)cc3)c2cc1OC
target | remaining activity
AKT2 (Homo sapiens, UniProt P31751) | 101%
PRKG2 (Homo sapiens, UniProt Q13237) | 104%
DDR2 (Homo sapiens, UniProt Q16832) | 100%
KDR (Homo sapiens, UniProt P35968) | 96.8%
GRK4 (Homo sapiens, UniProt P32298) | 106%
NEK3 (Homo sapiens, UniProt P51956) | 99.1%
MET (Homo sapiens, UniProt P08581) | 98.9%
CDC42BPB (Homo sapiens, UniProt Q9Y5S2) | 98.8%
PAK3 (Homo sapiens, UniProt O75914) | 97.7%
DCLK2 (Homo sapiens, UniProt Q8N568) | 102%
MAPK14 (Homo sapiens, UniProt Q16539) | 101%
MAP2K1 (Homo sapiens, UniProt Q02750) | 94.7%
CAMK4 (Homo sapiens, UniProt Q16566) | 101%

Block 3 — effect on: binding; method: radioligand binding; concentration: 10 µM
Structure (SMILES): CCC(=O)N[C@H]1CC[C@@H](C(=O)N(C)c2ccc(-c3nc4ccccc4o3)cc2)C1
target | inhibition
HRH3 (Homo sapiens, UniProt Q9Y5N1) | -8.17%
CHRM5 (Homo sapiens, UniProt P08912) | -0.421%
DRD4 (Homo sapiens, UniProt P21917) | 11.2%
HTR6 (Homo sapiens, UniProt P50406) | 3.86%
ADRB2 (Homo sapiens, UniProt P07550) | 1.55%
HTR2B (Homo sapiens, UniProt P41595) | 4.55%
ADRA1A (Homo sapiens, UniProt P35348) | 22.1%

Block 4 — method: DHFR PCA, deep sequencing; sample: yeast; with: (+)-ABA 58 µM; relative to: wild-type fitted maximum; reading: higher = stronger binding
Target: ABI1, truncated, D143A, DHFR fusion (Arabidopsis thaliana)
Notes: methotrexate growth selection, single substitutions
Parent: PYL1, truncated, DHFR fusion (Arabidopsis thaliana); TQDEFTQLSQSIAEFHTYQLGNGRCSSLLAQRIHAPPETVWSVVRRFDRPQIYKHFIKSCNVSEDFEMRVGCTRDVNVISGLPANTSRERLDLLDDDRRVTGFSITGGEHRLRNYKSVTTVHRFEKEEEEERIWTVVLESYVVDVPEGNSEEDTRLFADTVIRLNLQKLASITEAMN; partner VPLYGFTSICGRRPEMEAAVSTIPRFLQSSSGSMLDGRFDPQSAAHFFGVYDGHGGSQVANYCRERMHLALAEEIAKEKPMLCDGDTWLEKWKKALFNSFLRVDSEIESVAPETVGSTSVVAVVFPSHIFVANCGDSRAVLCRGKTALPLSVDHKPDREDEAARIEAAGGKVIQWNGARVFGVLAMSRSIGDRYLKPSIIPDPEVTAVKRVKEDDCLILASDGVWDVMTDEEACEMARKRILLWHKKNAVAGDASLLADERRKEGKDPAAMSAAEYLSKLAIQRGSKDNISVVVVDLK
Substitution | relative binding score
R88D | 27.8%
E128L | 89.8%
I105F | 8.95%
T160G | 53.9%
W41K | -2.29%
Q19F | 76.3%
V143H | -4.45%
S104H | 37.3%
